Experimental data gathered from unrelated publications.
Protocols differ between the studies behind these lines.
Organism: Escherichia coli

Structure (SMILES) | assay | system | conditions | MIC
CCCCCCCCCC(=O)N[C@@H](Cc1c[nH]c2ccccc12)C(=O)N[C@H](CC(N)=O)C(=O)N[C@@H](CC(=O)O)C(=O)N[C@@H]1C(=O)NCC(=O)N[C@@H](CCCNC(=O)CNC(=O)[C@H](CC(N)=O)NC(=O)[C@H](C)NC(=O)[C@H](CC(N)=O)NC(=O)CNC(=O)[C@@H](NC(=O)[C@H](CCCNC(=N)N)NC(=O)[C@H](CCSC)NC=O)[C@@H](C)O)C(=O)N[C@@H](CC(=O)O)C(=O)N[C@H](C)C(=O)N[C@@H](CC(=O)O)C(=O)NCC(=O)N[C@H](CO)C(=O)N[C@@H]([C@H](C)CC(=O)O)C(=O)N[C@@H](CC(=O)c2ccccc2N)C(=O)O[C@@H]1C | broth dilution | K12 MG1655 efflux knock-out |  | 140 µM
CN[C@@H]1[C@H](O)[C@H](NC)[C@H]2O[C@]3(O)[C@H](O[C@@H]2[C@H]1O)O[C@H](C)C[C@H]3NC(=O)Cc1ccc(Cl)cn1 | microbial growth, broth dilution | K12 |  | > 200 µg/mL
COc1ccc(CC2[NH2+]CCc3cc(OC)c(OC)cc32)cc1OC.[Cl][Fe-]([Cl])([Cl])[Cl] (centres unmarked) |  |  | 24 h, 37 °C | > 1600 µM
CC[C@H](C)[C@H](NC(=O)[C@@H](CCCNC(=N)N)NC(=O)[C@H](CCCNC(=N)N)NC(=O)[C@H](Cc1ccccc1)NC(=O)[C@H](Cc1c[nH]c2ccccc12)NC(=O)[C@H](CCCNC(=N)N)NC(=O)[C@@H]1CCCN1C(=O)[C@H](CCCNC(=N)N)NC(=O)[C@@H]1CCCN1C(=O)[C@H](CC(C)C)NC(=O)[C@H](Cc1ccc(O)cc1)NC(=O)[C@@H]1CCCN1C(=O)[C@@H]1CCCN1C(=O)[C@H](CCCCN)NC(=O)[C@H](CC(=O)O)NC(=O)[C@@H](N)C(C)C)C(=O)N[C@@H](Cc1ccc(O)cc1)C(=O)N[C@@H](CC(N)=O)C(=O)N[C@H](CCCNC(=N)N)C(N)=O | broth microdilution | BW25113 | 18 h, 37 °C, 25% MHB2 | 32 µg/mL
CC[C@H](C)[C@H](NC(=O)[C@@H](NC(=O)[C@H](CCCCN)NC(=O)[C@H](CCC(N)=O)NC(=O)[C@@H](NC(=O)[C@H](Cc1c[nH]c2ccccc12)NC(=O)[C@H](CCCCN)NC(=O)[C@H](CCCCN)NC(=O)[C@H](CC(C)C)NC(=O)[C@H](CCCNC(=N)N)NC(=O)[C@H](Cc1ccccc1)NC(=O)[C@@H](N)C(C)C)[C@@H](C)CC)C(C)C)C(N)=O |  |  | 24 h, 37 °C, Mueller-Hinton broth, FeCl3 4 µM | 32 µM
CC[C@H](C)[C@H](NC(=O)[C@@H](CCCNC(=N)N)NC(=O)[C@H](CCCNC(=N)N)NC(=O)[C@H](CCCN)NC(=O)[C@H](Cc1c[nH]c2ccccc12)NC(=O)[C@H](CCCNC(=N)N)NC(=O)[C@@H]1CCCN1C(=O)[C@H](CCCNC(=N)N)NC(=O)[C@@H]1CCCN1C(=O)[C@H](CC(C)C)NC(=O)[C@H](Cc1ccc(O)cc1)NC(=O)[C@@H]1CCCN1C(=O)[C@@H]1CCCN1C(=O)[C@H](CCCCN)NC(=O)[C@H](CC(=O)O)NC(=O)[C@@H](N)C(C)C)C(=O)N[C@@H](Cc1ccc(O)cc1)C(=O)N[C@@H](CC(N)=O)C(=O)N[C@H](CCCNC(=N)N)C(N)=O | broth microdilution | ATCC 25922 | 18 h, 37 °C, 25% MHB2 | 8 µg/mL
CC(CS)C(=O)N1CCCC1C(=O)O (centres unmarked) |  | NDM-1 producing | compound alone | > 2000 µM
C#CCNC(=O)C(C)(C)O/N=C(\C(=O)N[C@@H]1C(=O)N(S(=O)(=O)O)[C@H]1C)c1csc(N)n1 | agar dilution | 08-85 mcr-1 |  | 128 µg/mL
CC[C@H](C)[C@H](NC(=O)CNC(=O)[C@@H](NC(=O)CNC(=O)[C@@H](NC(=O)CNC(=O)[C@@H](NC(=O)[C@@H](NC(=O)[C@H](CCC(N)=O)NC(=O)[C@H](CCC(=O)O)NC(=O)[C@@H](NC(=O)[C@H](CC(C)C)NC(=O)[C@H](CCCNC(=N)N)NC(=O)[C@H](Cc1ccccc1)NC(=O)[C@@H](NC(=O)[C@H](CC(N)=O)NC(=O)[C@H](CCCCN)NC(=O)CNC(=O)[C@H](CCSC)NC(=O)[C@H](CCCCN)NC(=O)CNC(=O)[C@H](CC(C)C)NC(=O)[C@H](CCCCN)NC(=O)[C@H](CCCCN)NC(=O)CNC(=O)[C@H](Cc1ccccc1)NC(=O)[C@H](CCCCN)NC(=O)[C@H](CCCCN)NC(=O)[C@H](CC(C)C)NC(=O)[C@H](Cc1c[nH]c2ccccc12)NC(=O)CN)C(C)C)C(C)C)C(C)C)C(C)C)C(C)C)C(C)C)C(=O)N[C@@H](CC(N)=O)C(=O)N[C@@H](C)C(=O)N[C@@H](CC(C)C)C(=O)N[C@@H](CO)C(=O)O | broth microdilution | ATCC 25922, Mueller-Hinton broth | 16 to 20 h, 37 °C | 4.39 µg/mL
CC(C)C[C@H](NC(=O)[C@@H](NC(=O)[C@H](CCCCN)NC(=O)[C@H](CCCCN)NC(=O)[C@H](CC(C)C)NC(=O)[C@H](Cc1c[nH]c2ccccc12)NC(=O)[C@H](CCCCN)NC(=O)[C@H](Cc1c[nH]c2ccccc12)NC(=O)[C@H](CC(C)C)NC(=O)[C@H](CCCCN)NC(=O)[C@H](CCCCN)NC(=O)[C@@H](N)C(C)C)C(C)C)C(N)=O |  |  | 24 h, 37 °C, Mueller-Hinton broth, no additive | 16 µM
CCCCCCCC(=O)N[C@@H](CCN)C(=O)N[C@H](C(=O)N[C@@H](CCN)C(=O)N[C@H]1CCNC(=O)[C@H]([C@@H](C)O)NC(=O)[C@H](CCN)NC(=O)[C@H](CCN)NC(=O)[C@H](CC(C)C)NC(=O)[C@@H](Cc2ccc(F)cc2)NC(=O)[C@H](CCN)NC1=O)[C@@H](C)O | broth microdilution | mcr-1, colistin-resistant |  | 2 to 4 µg/mL
CC[C@H](C)[C@H](NC(=O)[C@@H](CCCNC(=N)N)NC(=O)[C@H](CCCNC(=N)N)NC(=O)[C@@H]1CCCN1C(=O)[C@@H]1CCCN1C(=O)[C@H](CCCNC(=N)N)NC(=O)[C@@H]1CCCN1C(=O)[C@H](CCCNC(=N)N)NC(=O)[C@@H]1CCCN1C(=O)[C@H](CC(C)C)NC(=O)[C@H](Cc1ccc(O)cc1)NC(=O)[C@H](Cc1c[nH]cn1)NC(=O)[C@@H]1CCCN1C(=O)[C@H](CCCCN)NC(=O)[C@H](CC(=O)O)NC(=O)[C@@H](N)C(C)C)C(=O)N[C@@H](Cc1ccc(O)cc1)C(=O)N[C@@H](CC(N)=O)C(=O)N[C@H](CCCNC(=N)N)C(N)=O | broth microdilution | ATCC 25922 | 18 h, 37 °C, 25% MHB2 | 16 µg/mL
CCn1c(-c2ccc(-c3ccc(OC)cc3)cc2)c(-c2ccc(-c3ccc(OC)cc3)cc2)n(CC)c1=[Se] | broth microdilution | carbapenem-resistant BAA-2140 | 24 h | > 40 µM
COc1c(NC(=O)/C(C)=C/c2ccc(O)cc2)ccc(C(=O)N[C@@H](CC#N)C(=O)Nc2ccc(C(=O)Nc3ccc(C(=O)Nc4ccc(C(=O)O)cc4)c(O)c3OC(C)C)c(O)c2OC)c1O |  |  |  | > 16 µg/mL
c1ccc(CCNC2CCCc3c2[nH]c2ccc(C4CCCCC4)cc32)cc1 (centres unmarked) | broth microdilution | MB5746 efflux-deficient hyperpermeable |  | 2 µg/mL
CC1(C)[C@H](NC(=O)/C(=N\OC2(C(=O)O)CCCC2)c2csc(N)n2)C(=O)N1OS(=O)(=O)O | agar dilution | CDC 1001728, NDM-1 |  | 0.5 µg/mL
CC[C@H](C)[C@H](NC(=O)[C@@H](CCCNC(=N)N)NC(=O)[C@H](CCCNC(=N)N)NC(=O)[C@H](C)NC(=O)[C@H](Cc1c[nH]c2ccccc12)NC(=O)[C@H](CCCNC(=N)N)NC(=O)[C@@H]1CCCN1C(=O)[C@H](CCCNC(=N)N)NC(=O)[C@@H]1CCCN1C(=O)[C@H](CC(C)C)NC(=O)[C@H](Cc1ccc(O)cc1)NC(=O)[C@@H]1CCCN1C(=O)[C@@H]1CCCN1C(=O)[C@H](CCCCN)NC(=O)[C@H](CC(=O)O)NC(=O)[C@@H](N)C(C)C)C(=O)N[C@@H](Cc1ccc(O)cc1)C(=O)N[C@@H](CC(N)=O)C(=O)N[C@H](CCCNC(=N)N)C(N)=O | broth microdilution | MC4100 | 18 h, 37 °C, 25% MHB2 | 16 µg/mL
CC(C)Oc1ccc(B(O)O)c(F)n1 | bacterial growth | CTX-M-14 ESBL clinical isolate | without cefotaxime | 1020 µg/mL
CCCCCCCC(=O)N[C@@H](CCN)C(=O)N[C@H](C(=O)N[C@@H](CCN)C(=O)N[C@H]1CCNC(=O)[C@H]([C@@H](C)O)NC(=O)[C@H](CCN)NC(=O)[C@H](CCN)NC(=O)[C@H](Cc2ccccc2)NC(=O)[C@@H](CCCc2ccccc2)NC(=O)[C@H](CCN)NC1=O)[C@@H](C)O | broth microdilution | ATCC 25922, colistin-susceptible |  | 0.25 to 0.5 µg/mL
CC[C@H](C)[C@H](NC(=O)[C@@H](CCCNC(=N)N)NC(=O)[C@H](CCCNC(=N)N)NC(=O)[C@@H]1CCCN1C(=O)[C@@H]1CCCN1C(=O)[C@H](Cc1ccccc1)NC(=O)[C@@H]1CCCN1C(=O)[C@H](CCCNC(=N)N)NC(=O)[C@@H]1CCCN1C(=O)[C@H](CC(C)C)NC(=O)[C@H](Cc1ccc(O)cc1)NC(=O)[C@@H]1CCCN1C(=O)[C@@H]1CCCN1C(=O)[C@H](CCCCN)NC(=O)[C@H](CC(=O)O)NC(=O)[C@@H](N)C(C)C)C(=O)N[C@@H](Cc1ccc(O)cc1)C(=O)N[C@@H](CC(N)=O)C(=O)N[C@H](CCCNC(=N)N)C(N)=O | broth microdilution | MC4100 | 18 h, 37 °C, 25% MHB2 | 8 µg/mL

Excerpt of the above:
Structure (SMILES) | assay | system | conditions | MIC
CC[C@H](C)[C@H](NC(=O)[C@@H](NC(=O)[C@H](CCCCN)NC(=O)[C@H](CCC(N)=O)NC(=O)[C@@H](NC(=O)[C@H](Cc1c[nH]c2ccccc12)NC(=O)[C@H](CCCCN)NC(=O)[C@H](CCCCN)NC(=O)[C@H](CC(C)C)NC(=O)[C@H](CCCNC(=N)N)NC(=O)[C@H](Cc1ccccc1)NC(=O)[C@@H](N)C(C)C)[C@@H](C)CC)C(C)C)C(N)=O |  |  | 24 h, 37 °C, Mueller-Hinton broth, FeCl3 4 µM | 32 µM
C#CCNC(=O)C(C)(C)O/N=C(\C(=O)N[C@@H]1C(=O)N(S(=O)(=O)O)[C@H]1C)c1csc(N)n1 | agar dilution | 08-85 mcr-1 |  | 128 µg/mL
